Assay results collected from several papers.
Numbered parts are unrelated; each lists some results of a single study.

Block 1 — method: protein-binding microarray; molecule type: double-stranded DNA, one strand shown; matrix: in vitro; tested at: 250 nM; setting: 60-bp whole probe; added: salmon DNA 0.4 mg/ml; reference: random background probes; direction: higher = stronger binding; all sequences stand within: GCCTAGCAC … GTCTTGATTCGCTTGACGCTGCTG
Target: Interferon regulatory factor 7, full length, phosphomimetic (IRF7, Homo sapiens, UniProt Q92985, residues 1-503, S101K/S471D/S472D/S475D/S476D/S477D/S483D/S484D/S487D)
Chain of UniProt Q92985 (whole entry, unmodified, looked up): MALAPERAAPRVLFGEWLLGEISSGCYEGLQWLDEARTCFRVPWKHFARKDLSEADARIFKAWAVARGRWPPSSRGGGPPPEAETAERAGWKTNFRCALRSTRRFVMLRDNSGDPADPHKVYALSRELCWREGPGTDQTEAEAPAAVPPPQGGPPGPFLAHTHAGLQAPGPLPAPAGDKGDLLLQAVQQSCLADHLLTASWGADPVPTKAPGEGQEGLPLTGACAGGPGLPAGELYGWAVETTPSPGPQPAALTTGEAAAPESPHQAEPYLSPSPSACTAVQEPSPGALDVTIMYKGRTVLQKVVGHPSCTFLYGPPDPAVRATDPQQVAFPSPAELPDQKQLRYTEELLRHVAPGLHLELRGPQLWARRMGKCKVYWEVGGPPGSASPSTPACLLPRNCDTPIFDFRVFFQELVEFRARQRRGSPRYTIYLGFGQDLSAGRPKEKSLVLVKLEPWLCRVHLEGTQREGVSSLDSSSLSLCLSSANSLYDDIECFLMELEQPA
Sequence | log fluorescence [z-score]
AGTGATAACTTTTTTTTTTCGTGCTAG | -0.238
TTAGGTTTCGGGTACCGGTTAGTGCTA | 6.34
TCAAGGTTTTCTCTGGTACTGTGCTAG | 0.21
TTAGAACTGAGACTGGGTTAGTGCTAG | -0.112
TTAGGACTGCTTTTCCTCTAGTGCTAG | 1.31
TCACTCATGGCTTTGTAGATGTGCTAG | -0.31
TCATCTTCTCCTCTAGGACTGTGCTAG | 0.858
GAGGATTTCAGTTCCGAGACGTGCTAG | 0.353
TTAGGACCGCTTCTCCTTTAGTGCTAG | 3.19
TTAGATTTCGGGACTAGATTAGTGCTA | 0.635
CACGGTTCCGGTTTCGGGACGTGCTAG | 7.4
GACGGACTGCTTATCCTGGCGTGCTAG | -0.518
GACGGACTGGGGTTTCGGGGCGTGCTA | 0.29
TTAGGTTTCGGGTTTCGGTTTGTGCTA | 13.4

Block 2 — method: universal PBM; molecule type: double-stranded DNA, one strand shown; matrix: in vitro; tested at: 600 nM; direction: higher = stronger binding
Target: Sal-like protein 4, full length isoform A (SALL4, Homo sapiens, UniProt Q9UJQ4, residues 1-1053)
Chain of UniProt Q9UJQ4 (whole entry, looked up): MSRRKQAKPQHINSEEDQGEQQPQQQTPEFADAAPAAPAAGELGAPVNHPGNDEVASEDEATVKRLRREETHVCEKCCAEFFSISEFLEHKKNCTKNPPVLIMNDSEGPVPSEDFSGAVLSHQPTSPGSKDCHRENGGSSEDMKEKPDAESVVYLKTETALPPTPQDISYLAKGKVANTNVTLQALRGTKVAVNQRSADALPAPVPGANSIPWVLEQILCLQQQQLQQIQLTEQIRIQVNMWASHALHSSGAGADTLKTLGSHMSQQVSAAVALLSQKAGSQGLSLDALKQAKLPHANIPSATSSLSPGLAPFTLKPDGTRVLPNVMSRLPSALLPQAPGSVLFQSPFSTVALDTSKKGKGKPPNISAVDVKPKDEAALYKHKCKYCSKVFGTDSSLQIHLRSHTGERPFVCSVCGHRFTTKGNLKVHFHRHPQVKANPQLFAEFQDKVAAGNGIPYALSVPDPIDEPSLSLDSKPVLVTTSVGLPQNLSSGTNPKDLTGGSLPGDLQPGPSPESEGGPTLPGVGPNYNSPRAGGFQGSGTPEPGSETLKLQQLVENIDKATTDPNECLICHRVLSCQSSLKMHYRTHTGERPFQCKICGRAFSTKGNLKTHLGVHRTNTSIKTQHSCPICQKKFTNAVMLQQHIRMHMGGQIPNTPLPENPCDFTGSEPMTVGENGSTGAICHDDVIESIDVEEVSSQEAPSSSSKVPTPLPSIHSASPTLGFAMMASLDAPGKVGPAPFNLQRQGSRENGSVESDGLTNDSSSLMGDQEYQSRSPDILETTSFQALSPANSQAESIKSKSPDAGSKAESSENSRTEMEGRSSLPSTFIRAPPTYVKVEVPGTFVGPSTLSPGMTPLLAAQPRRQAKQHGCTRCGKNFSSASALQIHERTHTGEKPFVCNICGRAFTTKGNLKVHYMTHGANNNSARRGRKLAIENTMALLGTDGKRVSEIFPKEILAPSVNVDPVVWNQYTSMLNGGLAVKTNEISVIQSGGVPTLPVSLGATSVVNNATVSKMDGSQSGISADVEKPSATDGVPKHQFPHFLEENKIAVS
Setting: 8-mer, flanks averaged, mean of replicates
Sequence | E-score
GTGATGCA | 0.12
CTCGCGTA | -0.103
AATAGACC | 0.0784
TACCACAA | 0.273
AACCCGTA | -0.0636
CGGCTGAC | -0.205
AAAGGGGC | -0.184
AACACTTA | 0.234
CGACGTCA | -0.269
AAACTCTT | 0.0386

Block 3 — method: RNA Bind-n-Seq; molecule type: RNA; matrix: in vitro; tested at: 100 nM; reference: input RNA pool; direction: higher = stronger binding
Target: RING finger protein unkempt homolog, zinc fingers 1-6, SBP tag (UNK, Homo sapiens, UniProt Q9C0B0, residues 30-357)
Chain of UniProt Q9C0B0 (30-357, looked up): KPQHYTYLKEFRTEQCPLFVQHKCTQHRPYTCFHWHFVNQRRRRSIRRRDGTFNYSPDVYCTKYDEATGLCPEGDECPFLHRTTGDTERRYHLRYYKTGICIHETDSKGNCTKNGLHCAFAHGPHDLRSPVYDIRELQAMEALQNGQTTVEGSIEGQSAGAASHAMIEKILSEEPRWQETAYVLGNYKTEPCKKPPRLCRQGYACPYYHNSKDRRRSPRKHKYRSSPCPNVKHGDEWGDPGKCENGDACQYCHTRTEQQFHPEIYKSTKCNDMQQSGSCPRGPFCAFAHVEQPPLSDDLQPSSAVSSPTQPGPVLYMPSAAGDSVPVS
Setting: RNA with constant flanks, vertebrate orthologous sites, ends assumed
All sequences stand within: GGGAGUUCUACAGUCCGACGAUC … CAACAGAGGAUUGAGCAUCA
Sequence | bound/input enrichment [ratio]
CUACAAUAAUGAAAACCUACAGGAAUUUUUUUUAUUUUCCAUUUCCCCCUUAGGCAUAUUUAGGCUUUUUUUCCCAGGCAGAUCAUUCUGAGUGUGCGUGUGUGUGCACAUGUUAAAAAG | 1.05
UUGGGCUGUACCCGUGGGCGCCGCUGCCCAUGCAGCGUUGCUUGGUCUGGGACCUUGACGUAAUAGAUAGGCUUGUGGUUUUUUAAUUUAAAGAUAUUAAGACUUAAUUCACUAAACUUU | 0.372
CAACUCAAUGGUUGAGGGCUCGGAACUCAAAAAGGUCCGCUCCAACUCUAGAAUAUACCAUAGGUAUUUUUUACUGGAUGCCGACAUGCAGAGCCUGAGGUGGGAGCCAUCGAAGAAAGA | 0.145
AGGAAAUGCUAGCUGCAAACCCUCAGGAUCGUCCAGAUGCUUUUGAACUAGAACUCCGAUUAGUGCAAAUUGCAUUUAAAGAUAACAGCUGGGAAACGUGACACAUACAUUAUUUGCAAA | 0.994
GCCCCCCACUCCCUGUGAGAGGGAAUGGGGGAAGCCUGAUGACCCUCAGCUGUUCCAAUCUAGUAUUUUUUUUCUUUUUUAAAAUUACUGUAUUUAUUAUGACGAUGGUGACUCCCCAGU | 1.6
CUAUAUGUAGAAAAACGAUUUUCACUGAAACCAUUGUCUAGUUUUUCCCCUAGAGUUUUAUUAGGAGCUCUUUAAUUUUAUACAAGCUUGCUGUGUUGGUCAUCAUUUCUCCAGAGUUAA | 0.962
UUUUAAAGUUUUUUUUUUAAUUUAAUUUUUCCUUUUGGGGGUAAAGUUUGCUCUACCAAAUAGUGAUCGUAACAAAUUGAUCUGUUUUGGAUGUUGCUAUAGUGACAUGCAGUUAUAUAU | 0.712
AAGAUGGUGGUUGUACAUUACUUCAUUUAGAAAAUAUAAAAAUACAUUUUGUUUUGAAGCUAGGUGUUAAACUGGAGUAGCUAUAUUAUACCCCUAGAGAAUGGGGCAGUUGUGCCCUUC | 2.13

Mixed results
Molecule | target | test | system | conditions | how to read | endpoint | value
PhoQ, residues 284 288 289 292 302 303 SIHLQL | PhoP, residues 12 14 15 18 19 AQCLL (Escherichia coli, UniProt P23836) | Sort-seq, measured: YFP reporter | E. coli | PhoQ-PhoP variant library, added: 10 µM Mg2+ | reference: high Mg2+ state, higher = stronger signaling | fold induction | 1.19

Some of these lines once more (block 1):
Sequence | log fluorescence [z-score]
TTAGGACCGCTTCTCCTTTAGTGCTAG | 3.19
TCAAGGTTTTCTCTGGTACTGTGCTAG | 0.21
TTAGATTTCGGGACTAGATTAGTGCTA | 0.635
